# Experimental data from different studies.
# Protocols differ between the studies behind these lines. ± gives the spread as reported.
Structure (SMILES),test,test system,conditions,Tmax [h]
CN[C@H](CC(C)C)C(=O)N[C@H]1C(=O)N[C@@H](CC(N)=O)C(=O)N[C@H]2C(=O)N[C@H]3C(=O)N[C@H](C(=O)N[C@H](C(=O)O)c4cc(O)cc(O)c4-c4cc3ccc4O)[C@H](O)c3ccc(c(Cl)c3)Oc3cc2cc(c3O[C@@H]2O[C@H](CO)[C@@H](O)[C@H](O)[C@H]2O[C@H]2C[C@](C)(N)[C@H](O)[C@H](C)O2)Oc2ccc(cc2Cl)[C@H]1O,,"guinea pig, tissue cage fluid","intraperitoneal, 15 mg/kg, single dose",3
O=C(c1cccnc1-c1ccncc1)N1CCC(O)(Cc2ccccc2)CC1,,"healthy Japanese adults, plasma","oral, 200 mg single dose",0.75
CO[C@H]1CC[C@H](N2C(=O)CNc3ncc(-c4ccc(C(C)(C)O)nc4)nc32)CC1,,"patients, plasma","oral, 45 mg, day -1, median",3
Cc1ccc(NC(=O)c2ccc(CN3CCN(C)CC3)cc2)cc1Nc1nccc(-c2cncc(-c3oncc3C)c2)n1,,"Parkinson's disease patients, plasma","oral, 100 mg/day, 7 days, steady state",4.4 ± 1.7
C[C@H]1CN(C(=O)CC#N)[C@]12CCN(c1ncnc3[nH]ccc13)C2,,healthy Japanese males,"oral, 1 mg single dose, median",0.8
Oc1ccc([C@@H](O)c2cc(-c3ncnc4cc(N5CCOCC5)ccc34)c(F)cc2Cl)nn1,median,"healthy volunteers, plasma","oral, 100 mg, fasted tablet",1
CN(CCC(=O)O)C(=O)c1ccc2c(c1)CC[C@@H]1[C@@H]2CC[C@]2(C)C(c3cncc(F)c3)=CC[C@@H]12,,"premenopausal women, plasma","60 mg twice daily, after day 14, multiple dose, median",1.93
COc1c(O)cc(C(=O)O)cc1O,,"male Ross broilers, serum","intravenous, 0.49 mg/kg gallic acid",0.24
C[C@H]1[C@H]2N(C(=O)CN(C)N2C(=O)NCc2ccccc2)[C@@H](Cc2ccc(OP(=O)(O)O)cc2)C(=O)N1Cc1cccc2cccnc12,,"patients, plasma","intravenous infusion, 140 mg/m2 over 4 h, median",1
C[C@@](Cc1ccc(O)c(O)c1)(NN)C(=O)O,,"Parkinson's disease patients, plasma","oral, low levodopa AUC subgroup (11.5 µmol·h/L), median",2
N#CC[C@H](C1CCCC1)n1cc(-c2ncnc3[nH]ccc23)cn1,,"children, plasma","oral, after first dose, all dose levels",1
COc1nnc2ccc(N3CCC(c4ccc(OCCN5CCN(C)C(=O)[C@H]5C)cc4)CC3)nn12,,"patients, plasma","oral, 10 mg twice daily, single dose, monotherapy, median",2.02
CCCCC[C@H](O)CC[C@@H]1[C@H]2Cc3cccc(OCC(=O)O)c3C[C@H]2C[C@H]1O,LC-MS/MS,"Japanese PAH patients, plasma","inhaled, 54 µg, body weight ≥56.7 kg, mean",0.29
CCc1nc2c(C)cc(N3CCN(CC(=O)N4CC(O)C4)CC3)cn2c1N(C)c1nc(-c2ccc(F)cc2)c(C#N)s1,,"healthy volunteers, fed, plasma","oral, 300 mg single dose, day 1, suspension",1
CCCCCCCCCCCCCCCC(=O)N[C@@H](CCC(=O)NCCCC[C@@H]1NC(=O)[C@H]([C@@H](C)CC)NC(=O)[C@@H](NC(=O)[C@@H]2CCCN2C(=O)[C@H](Cc2ccccc2)NC(=O)[C@H](Cc2c[nH]cn2)NC(=O)[C@@H](NC(=O)[C@H](CC(=O)O)NC(=O)CC(C)C)[C@@H](C)O)CSSC[C@@H](C(=O)N[C@@H](CCCCN)C(N)=O)NC(=O)CNC(=O)[C@H](CCCCN)NC(=O)[C@H](CO)NC(=O)[C@H](CCCNC(=N)N)NC(=O)[C@@H]2CCCN2C(=O)[C@H](CCC(=O)O)NC(=O)[C@H](Cc2ccccc2)NC1=O)C(=O)O,,"healthy volunteers, plasma","subcutaneous, 10 mg single, lyophilised formulation, median",24
